{"data": "Published values from different studies", "note": "Protocols differ between the studies behind these lines. ± marks the error that the study gave."}
{"Compound": "CCCCCCCCCCCCCCCC(=O)N[C@@H](CCC(=O)NCCCC[C@@H]1NC(=O)[C@H]([C@@H](C)CC)NC(=O)[C@@H](NC(=O)[C@@H]2CCCN2C(=O)[C@H](Cc2ccccc2)NC(=O)[C@H](Cc2c[nH]cn2)NC(=O)[C@@H](NC(=O)[C@H](CC(=O)O)NC(=O)CC(C)C)[C@@H](C)O)CSSC[C@@H](C(=O)N[C@@H](CCCCN)C(N)=O)NC(=O)CNC(=O)[C@H](CCCCN)NC(=O)[C@H](CO)NC(=O)[C@H](CCCNC(=N)N)NC(=O)[C@@H]2CCCN2C(=O)[C@H](CCC(=O)O)NC(=O)[C@H](Cc2ccccc2)NC1=O)C(=O)O", "test system": "healthy volunteers, plasma", "setting": "subcutaneous, 20 mg", "scale": "reference: parent plus metabolites", "endpoint": "AUC(0-inf) share of total", "value": "61.7 ± 4.53%"}
{"Compound": "NC1(C(=O)N[C@@H](CCO)c2ccc(Cl)cc2)CCN(c2ncnc3[nH]ccc23)CC1", "test system": "human patients, plasma", "setting": "160 mg twice daily, day 8, continuous dosing", "endpoint": "geometric mean Cmax", "value": "653 ng/mL"}
{"Compound": "COc1ccc([C@@H](O)c2cc(-c3ncnc4cc(N5CCOCC5)ccc34)c(F)cc2Cl)nn1", "test system": "locally advanced rectal cancer", "setting": "all dose levels overall, added: capecitabine and radiotherapy", "endpoint": "drug-related adverse events, investigations", "value": "42%"}
{"Compound": "C=CCN1CC(=O)N2[C@@H](Cc3ccc(O)cc3F)C(=O)N(Cc3cccc(N4CC(N5CCN(CC)CC5)C4)n3)C[C@@H]2N1C(=O)NCc1ccccc1", "test system": "advanced solid tumour patients", "setting": "oral, 30 mg twice daily, grade ≥3, dose-escalation", "endpoint": "treatment-related decreased appetite", "value": "0%"}
{"Compound": "Cc1cc(NC2CCN(C(=O)OC3CCN(C(=O)/C=C/CN(C)C)C3)CC2)n2ncc(C(C)C)c2n1 (stereo not drawn)", "assay": "Phase I dose escalation CTCAE v4.0, refers to: Arthralgia", "test system": "patients with advanced solid tumours", "setting": "dose not given, all dose schedules any grade", "endpoint": "patients with adverse event", "value": "9%"}
{"Compound": "COc1ccc([C@@H](O)c2cc(-c3ncnc4cc(N5CCOCC5)ccc34)c(F)cc2Cl)nn1", "assay": "mixed model", "test system": "healthy volunteers, plasma", "setting": "oral, 100 mg, fasted tablet reference arm", "endpoint": "AUC(0-inf) geometric LS mean", "value": "1150 ng·h/mL"}
{"Compound": "CNC(=O)c1ccc(-c2cnc3ncc(Cc4ccc5ncccc5c4)n3n2)cc1F", "assay": "refers to: Ascites, all grades", "test system": "cancer patients", "setting": "oral, 600 mg twice daily, other expansion cohort, any causality", "endpoint": "patients with adverse event", "value": "0%"}
{"Compound": "CCc1cc(C(=O)NC)c2nccc(N3CCc4c(cc(Cn5ccnc5)cc4-c4cn(C)nc4C(F)(F)F)C3=O)c2c1", "test system": "Sprague Dawley rat", "setting": "oral, 100 mg/kg once daily, 7 days", "endpoint": "liver weight", "value": "12.2 ± 0.388 g"}
{"Compound": "CC(C)(C(=O)N1CCOc2c(C#N)cncc2C1)C(F)F", "assay": "refers to: gastrointestinal disorders", "test system": "human", "setting": "oral, 40 mg, CSF pharmacokinetic cohort", "endpoint": "subjects with adverse event", "value": "33.3%"}
{"Compound": "CNCc1ccc(-c2[nH]c3cc(F)cc4c3c2CCNC4=O)cc1", "test system": "human patients", "setting": "oral, 840 mg twice daily, all grades", "endpoint": "diarrhoea incidence", "value": "100%"}
{"Compound": "O=C(O)CCC(=O)O.[2H]C([2H])([2H])Oc1cc(C)c2[nH]ccc2c1CN1CC[C@@H](C2CC2)C[C@H]1c1ccc(C(=O)O)cc1", "assay": "ECG", "test system": "healthy Chinese subjects", "setting": "oral, 200 mg once daily, multiple ascending dose", "endpoint": "TEAE T wave abnormality", "value": "0%"}
{"Compound": "Cn1cnc2c(F)c(Nc3ccc(Br)cc3Cl)c(C(=O)NOCCO)cc21", "assay": "population PK model", "test system": "human, plasma", "setting": "oral, transit compartment absorption model", "scale": "reference: fed over fasted", "endpoint": "relative bioavailability", "value": 0.91}
{"Compound": "CC(C)=CC[C@@H](O)C1=CC(=O)c2c(O)ccc(O)c2C1=O", "test system": "plasma", "setting": "500 ng/mL, 3 freeze-thaw cycles at -80 °C", "endpoint": "measured concentration", "value": "482 ± 12.4 ng/mL"}
{"Compound": "CNCCOC12CC3(C)CC(C)(CC(Cn4ncc(-c5ccc(N6CCc7cccc(C(=O)Nc8nc9ccccc9s8)c7C6)nc5C(=O)O)c4C)(C3)C1)C2", "test system": "beagle dog, male, anaesthetised", "setting": "intravenous bolus, 0.03 mg/kg, 5 min", "scale": "reference: baseline", "endpoint": "dP/dt at 50 change", "value": "13%"}
{"Compound": "COc1ncc(-c2nc3c(n2C(C)C)[C@H](c2ccc(Cl)cc2)N(c2cc(Cl)cn(C)c2=O)C3=O)c(OC)n1", "test system": "human patients, plasma", "setting": "oral, 45 mg, cycle 1 day 1, low-dose", "endpoint": "median half-life", "value": "11.7 h"}
{"Compound": "Cc1ccc(Sc2ccccc2N2CCNCC2)c(C)c1", "test system": "healthy adult men", "setting": "oral, 10 mg single dose, treatment-emergent adverse events", "endpoint": "eczema incidence", "value": "0%"}
{"Compound": "O=C(O)CCCOc1ccc([18F])cc1-c1cc(-c2ccccc2C(F)(F)F)n(-c2ccccc2)n1", "assay": "gamma counting", "test system": "male ddY mice, pancreas", "setting": "intravenous, 2.1 MBq, 1 min", "endpoint": "radioactivity uptake", "value": "0.85 ± 0.68 SUV"}
{"Compound": "CCN1/C(=C/C(C)=O)Sc2ccc(F)cc21", "test system": "cynomolgus monkey", "setting": "oral, 30 mg/kg, 2 h post-dose", "scale": "reference: pre-dose", "endpoint": "diastolic blood pressure change", "value": "99 ± 2.7%"}
{"Compound": "N#Cc1ccc(C(c2ccc(C#N)cc2)n2cncn2)cc1", "test system": "human patients, plasma", "setting": "oral, 15 mg daily", "endpoint": "unbound Cmax at steady state", "value": "4.04 ± 0.185 µM"}
{"Compound": "CCn1cc(C(=O)N2CCOCC2)c(=O)c2cc(NC3Cc4ccccc4C3)cnc21", "test system": "human, fasted, plasma", "setting": "oral, 600 mg single dose, tablet, arithmetic mean", "endpoint": "AUC(0-last)", "value": "19600 ng·h/mL"}
{"Compound": "CCCn1cc(C)c2c(=O)[nH]c(-c3cc(S(=O)(=O)N4CCN(CC)CC4)ccc3OCC)nc21", "test system": "human", "setting": "concentration not given, treatment-emergent adverse event", "endpoint": "feeling hot", "value": "16.7%"}
{"Compound": "C[C@H]1O[C@@H](O[C@H]2[C@@H](O)C[C@H](O[C@H]3[C@@H](O)C[C@H](O[C@H]4CC[C@@]5(C)[C@H](CC[C@@H]6[C@@H]5C[C@@H](O)[C@]5(C)[C@@H](C7=CC(=O)OC7)CC[C@]65O)C4)O[C@@H]3C)O[C@@H]2C)C[C@H](O)[C@@H]1O", "assay": "refers to: general and administration site disorders", "test system": "healthy men", "setting": "oral, dose not given, 8 days, treatment-emergent, crossover trial", "endpoint": "subjects with adverse event", "value": "0%"}
{"Compound": "CC#CC(=O)N1CCC[C@H]1c1nc(-c2ccc(C(=O)Nc3ccccn3)cc2)c2c(N)nccn12", "assay": "noncompartmental analysis", "test system": "human, severe impairment, plasma", "setting": "oral, 50 mg, geometric mean", "endpoint": "unbound AUC(0-t)", "value": "11.5 ng·h/mL"}
{"Compound": "N#Cc1ccc2c(c1)[C@H]1CCCN(C(=O)c3ccc4[nH]cnc4c3)[C@H]1C2", "test system": "human females", "setting": "360 mg, end of trial", "endpoint": "DHEA-S", "value": "5.4 µmol/L"}
{"Compound": "OC[C@H]1O[C@@H](c2ccc(Cl)c(Cc3ccc(O[C@H]4CCOC4)cc3)c2)[C@H](O)[C@@H](O)[C@@H]1O", "test system": "Japanese type 1 diabetes patients, blood", "setting": "25 mg, day 28", "scale": "reference: baseline", "endpoint": "change in LDL cholesterol", "value": "3.42 mg/dL"}
{"Compound": "Cc1ccc(N(C)C(=O)/C=C/c2ccco2)cc1", "assay": "cold plate test", "test system": "mice", "setting": "oral, 30 mg/kg single, 45 min", "endpoint": "licking latency", "value": "18.5 ± 0.7 s"}
{"Compound": "CO[C@H]1C[C@@H]2CC[C@@H](C)[C@@](O)(O2)C(=O)C(=O)N2CCCC[C@H]2C(=O)O[C@H]([C@H](C)C[C@@H]2CC[C@@H](OC(=O)NCCOCCOCCOCCOCCOCCOCCOCCOCCC(=O)N3CCc4cc(Cn5nc(-c6ccc7oc(N)nc7c6)c6c(N)ncnc65)ccc4C3)[C@H](OC)C2)C[C@@H](O)[C@H](C)/C=C(\\C)[C@@H](O)[C@@H](OC)C(=O)[C@H](C)C[C@H](C)/C=C/C=C/C=C/1C", "test system": "human patients, plasma", "setting": "intravenous, 12 mg, cycle 1 day 15", "endpoint": "unbound AUClast", "value": "0.0387 µM·h"}
{"Compound": "CO[C@@H]1[C@H](O)[C@@H](CO)O[C@H]1n1c([N+](=O)[O-])nc2c(=O)[nH]c(N)nc21", "assay": "depurination, RP-HPLC", "test system": "citrate-phosphate buffer 0.5 mM", "setting": "240 min, pH 5, 37 °C", "endpoint": "nucleoside remaining fraction", "value": 0.853}
{"Compound": "C[C@H](CCC(=O)NCC(=O)O)[C@H]1CC[C@H]2[C@@H]3CC[C@@H]4C[C@H](OS(=O)(=O)O)CC[C@]4(C)[C@H]3C[C@H](O)[C@]12C", "test system": "human, plasma", "setting": "endogenous baseline diurnal", "scale": "reference: daily mean concentration", "endpoint": "relative peak deviation", "value": "82.7 ± 10.9%"}
{"Compound": "O=C(COc1ccc(Cl)cc1)NC12CC(c3nnc([C@H]4C[C@@H](OC(F)(F)F)C4)o3)(C1)C2", "test system": "human both sexes", "setting": "oral, 145 mg once daily, 14 days", "endpoint": "participants with TEAE", "value": "100%"}
{"note": "Excerpt of the above:"}
{"Compound": "COc1ccc([C@@H](O)c2cc(-c3ncnc4cc(N5CCOCC5)ccc34)c(F)cc2Cl)nn1", "assay": "mixed model", "test system": "healthy volunteers, plasma", "setting": "oral, 100 mg, fasted tablet reference arm", "endpoint": "AUC(0-inf) geometric LS mean", "value": "1150 ng·h/mL"}
{"Compound": "CNC(=O)c1ccc(-c2cnc3ncc(Cc4ccc5ncccc5c4)n3n2)cc1F", "assay": "refers to: Ascites, all grades", "test system": "cancer patients", "setting": "oral, 600 mg twice daily, other expansion cohort, any causality", "endpoint": "patients with adverse event", "value": "0%"}
{"Compound": "CCc1cc(C(=O)NC)c2nccc(N3CCc4c(cc(Cn5ccnc5)cc4-c4cn(C)nc4C(F)(F)F)C3=O)c2c1", "test system": "Sprague Dawley rat", "setting": "oral, 100 mg/kg once daily, 7 days", "endpoint": "liver weight", "value": "12.2 ± 0.388 g"}
{"Compound": "CC(C)(C(=O)N1CCOc2c(C#N)cncc2C1)C(F)F", "assay": "refers to: gastrointestinal disorders", "test system": "human", "setting": "oral, 40 mg, CSF pharmacokinetic cohort", "endpoint": "subjects with adverse event", "value": "33.3%"}
